# Assay results collected from several papers.
# Parts stem from different laboratories: compare values within a part only.

# Study 1
# Target: RNA binding protein fox-1 homolog 2, RRM domain, GST-SBP tag (RBFOX2, Homo sapiens, UniProt O43251-10, residues 100-194)
# Technique: RNA Bind-n-Seq
# Form: RNA
# Medium: in vitro
# Tested at: 365 nM
# Setting: natural RNA segment, single round, ends assumed
# Reference: no-protein control
# Reading: higher = stronger binding
# All sequences stand within: GGGAGUUCUACAGUCCGACGAUC … UGGAAUUCUCGGGUGCCAA
# Target sequence (chain): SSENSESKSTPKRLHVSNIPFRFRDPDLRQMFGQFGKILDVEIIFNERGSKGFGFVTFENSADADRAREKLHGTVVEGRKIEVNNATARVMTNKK
Strand,RBNS enrichment (R)
AGGUCCCUUCUCUUGAGACUCCCCUCUGAGAUCUGAAAAAUGAAGUGGCUUAGGAACAUCAGCAGUGAAGAACUGCCAAGAGUUGGUGAAGGUUGUCUCUUCCGAGGGCC,0.361
CAUGGUGCUGGAAAUGGUUGGGCUGUGUGACAUUUGAAGUGUUUCAGUGGUGGCGUGAGCAGUAGGUGAAGUGGUUGGUGAAGGAUGAGCCUCGCUCGUGAACUUCCUGU,1.31
UGCCCUGUCUGCUCUGCUGCUACAGAGGGGCAGGGCCUCCCCCAGCCCACGCUUAGGAAUGCUUGGCCUCUGGCAGGCAGGCAGCUGUACCCAAGCUGGUGGGCAGGGGG,0.592
ACCGUGGGACACCUCAUUCCCUACCCCAAACGGGCCUUUUAAUUGUCCUGGUCACUUGUACUGGUUACAGAGCCUCUCAGCGAUGGCUACACCACCCUUCUCACCCUGCC,0.799
CCCACAUCUCAGCGCUUUCCCCUUUUUUACCACUUAGACUUAAAGCAGGUGUCUUAAUUUACUCAACCUUCCCUAAAAGAGAAUUGUAUUGGGGCAGGAGGGAUCGCAGU,0.688
CCCCACGGGUACCAGGAAGUGCAGAGCCGCACAGGAGCUGCCCCGGAGCUGAGGGGACGGUCUUCGGCUCCUCUGCACCCCGUGAUUCUGCCCACGCUCCUCCACCACGA,0.465
UUCGAGCUACUUCAUCUGCAUAAGGAAAUCCUCAAUGUAGGUGAGUCAGGUCUGUUCCCCAACUGAAAGGGCUGUAAAAGAAUGGAUUAAUGUUUAGCUCUCACAAAGAG,0.541
UUGCUUGCUUGCUUGCUUGCCCUUAAAGAACAGAUCAAGCCUACAUACUCCAUACACUAUACUUCAUACUACAAGCUCCAUCUGUCCUCAGAUAAUUGUCUGACUUUUUU,7.44
AUUAAUAUAUACAAAGAGUCCUAUAAAGCCUGGCUGGGUGGAGAGGCACUGUUGAGUGUCUGCUGGGGACCUGACUUUACCAGUUUCCUGAAUGGCGCCUCCCCACCUCA,0.668
UGGCAGCUUAACAUUGACUUCUUGGUUUGGGGAGAAAUAAAUUUUGUUUCAGAAUUUUGUAUAUUGUAGGAAUCCUUUGAGAAUGUGAUUCCUUUUGAUGGGGAGAAAGG,2.23
GCUGAGAUUCCCAUUUCUCUUAAGGAGAAGCCACCCAUGAGAUGUCUUUUCCUUCUCCAUCAUCUUAGAGCCAAGUUAUAUGUUCUUGUCUAAUCCAUGUAGCUUUUUGU,0.474
GAAUGUUGGUUCCUUGUUCCAGGAAUUCAACAUUAAUUUCCAAAAGUAUCAUGGGACUUGUGACAAUACAAGACAUGAAUCUAUGUAUAAAAUUUAUCGGCCUUUCUCAU,0.26

# Study 2
# Target: Prothrombin, mature alpha-thrombin (F2, Homo sapiens, UniProt P00734)
# Technique: aptamer microarray, sandwich
# Form: DNA with 2'F-ANA
# Medium: in vitro
# Tested at: 200 nM
# Setting: whole 15-mer aptamer, many near background
# Together with: Cy3 exosite-II aptamer, 400 nM
# Reading: higher = stronger binding
# Strand: GGTTGGTGTGGTTGG
Modification,mean fluorescence intensity [a.u.]
2'F-ANA at 2 3 4 5 6 9 11 13 14 15,48
2'F-ANA at 1 2 7 10 12 13 15,83.2
2'F-ANA at 1 2 4 5 11 13 15,53.4
2'F-ANA at 2 6 7 8 9 12 13 14 15,154
2'F-ANA at 1 2 3 5 6 7 9 12 13 14,82.8
2'F-ANA at 1 7 9 10 13 14,46.3
2'F-ANA at 7 10 11 14,113
2'F-ANA at 1 4 6 8 9 10 11,48.6
2'F-ANA at 1 5 9 12 14,43.1
2'F-ANA at 2 4 6 7 8 10 11 12 13,85.3
2'F-ANA at 1 5 7 8 10 11 15,44.7
2'F-ANA at 1 5 9 10 11 14,62.4
2'F-ANA at 1 2 3 4 9 10 11 14,77.4
2'F-ANA at 3 4 5 8 9 10 11 14,73.8
2'F-ANA at 2 4 7 8 13 14,180
2'F-ANA at 5 6 8 11 14 15,46.1
2'F-ANA at 1 2 6 7 10 12,65.1
2'F-ANA at 1 3 4 5 7 9 10 11 12 13 15,47.6
2'F-ANA at 3 5 6 7 9 10 11 12 13 14 15,74.2
2'F-ANA at 2 3 4 6 8 9 12 13 14 15,245

# Study 3
# Target: Histone acetyltransferase KAT6A, winged helix 1, GST fusion (KAT6A, Homo sapiens, UniProt Q92794, residues 1-85)
# Technique: protein binding microarray
# Form: double-stranded DNA, one strand shown
# Medium: in vitro
# Tested at: not given
# Setting: 8-mer, flanks averaged, mean of 2 arrays, mostly near background
# Reference: not given
# Reading: higher = stronger binding
# Construct (chain): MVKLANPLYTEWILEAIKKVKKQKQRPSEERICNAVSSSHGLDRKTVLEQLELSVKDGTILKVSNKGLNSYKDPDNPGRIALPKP
Strand,E-score
GCGTCTAC,0.21
CCACAAAC,-0.154
GATGCTAA,-0.00441
ACAATTAA,0.0498
AGGCCACT,-0.0643
AGGTTCCG,0.211
AGTTGAAT,-0.136
GCCGTGCC,0.383
AGGCGCAG,0.0757
CGTTTATC,0.0631
CTGAAGGC,-0.129
ATGGGAGG,-0.131
GCCCACCC,0.149
CGATGCTA,0.0762
CCTGAGGC,0.0191
AAAGGTGG,-0.152
ACTACCCG,0.207
CGTGAGTC,0.0931
AGACCTTG,-0.141
TAGCGTGA,-0.00873
ACGTCACT,-0.122
TGTCATAA,-0.227
GCTCATAC,-0.00349
GCAAGATA,-0.121
AAGGGTCA,-0.0494

# Study 4
# Target: Ras GTPase-activating protein-binding protein 1, full length (G3BP1, Homo sapiens, UniProt Q13283)
# Chain of UniProt Q13283 (whole entry, looked up): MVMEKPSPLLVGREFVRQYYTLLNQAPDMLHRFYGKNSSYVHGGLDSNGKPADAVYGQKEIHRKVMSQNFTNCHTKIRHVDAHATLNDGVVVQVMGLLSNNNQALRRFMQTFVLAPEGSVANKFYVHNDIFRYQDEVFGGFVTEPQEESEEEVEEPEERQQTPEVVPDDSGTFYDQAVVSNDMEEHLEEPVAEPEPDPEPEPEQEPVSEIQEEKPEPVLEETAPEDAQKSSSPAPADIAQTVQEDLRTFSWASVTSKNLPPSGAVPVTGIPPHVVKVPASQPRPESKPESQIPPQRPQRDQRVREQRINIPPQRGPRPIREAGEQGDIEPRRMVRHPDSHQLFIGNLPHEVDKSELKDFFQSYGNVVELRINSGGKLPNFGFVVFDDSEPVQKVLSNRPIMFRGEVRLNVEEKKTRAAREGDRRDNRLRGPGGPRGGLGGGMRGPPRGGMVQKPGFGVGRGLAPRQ
# Technique: RNA Bind-n-Seq
# Form: RNA
# Medium: in vitro
# Tested at: 200 nM
# Setting: whole 134-nt RNA, ends assumed
# Together with: 150 mM LiCl
# Reference: input library
# Reading: higher = stronger binding
# All molecules: 7-deaza-guanosine replaces G
# All sequences stand within: GGGAGUUCUACAGUCCGACGAUC … UGGAAUUCUCGGGUGUCAAGG
Strand,log2 enrichment
GCAGGAAGUAAAUACAAAUGGAAAUGCUUCGGAUAGUGGCAGGGGUGGGGGUUGCUAAGGAAAGGGUGGGAUGGGAGUGGGUAAAGAGUU,-0.371
CACAGACAACACGCACCCACACAGACACGGAGGGAAGGGGUUGGGAUGGGGACAGGGUGCACAGCAGGGCGGGGUAGGACCCCAGCCCCU,-0.129
UCCUGUGCUACACAUCGUAUGUACCGAAUCGGGUUUUUUUGGGUUUUUUUGGGAAAGGGAAAGUAUUAUGUUACGCCGUUCGGAUCUGCA,0.643
CCUGUGCUACACAUCGUAUGUACCGAAUCGGGGUUUUUUGGGGUUUUUUGGGGUUUUUUGGAAAGUAUUAUGUUACGCCGUUCGGAUCUG,1.32
CCUCAAGUCCUGUGCUACACAUCGUAUGUACCGAAUCGGUGGGGUGGGUGGGGAAAGUAUUAUGUUACGCCGUUCGGAUCUGCACUUCCA,0.248
CACAGACAACACGCACCCACACAGACACAGAGGGAAGGGGUUGGGAUGGGGACAGGGUGCACAGCAGGGCGGGGUACGACCCCAGCCCCU,1.34
AGUCCUGUGCUACACAUCGUAUGUACCGAAUCGGGGUUUGGGGAAAAAGGGGAGGGGAAAGUAUUAUGUUACGCCGUUCGGAUCUGCACU,-0.0837
AGUCCUGUGCUACACAUCGUAUGUACCGAAUCGGGAAAAAGGGAAAAAGGAAAAAGGGAAAGUAUUAUGUUACGCCGUUCGGAUCUGCAC,-0.598
UGCACUGACUGGUGGUGUCAACCCAUGGCUCAACUGGAAGCACUGUGGAAGAAGAUGGAGGGUGUGGUAAGUCCAUCAGACCUGGGACCG,-2.25
AGUCCUGUGCUACACAUCGUAUGUACCGAAUCGGGGUUUGGGGUUUGGGGUUUGGGGAAAGUAUUAUGUUACGCCGUUCGGAUCUGCACU,-0.55
UGUGAACUUGUAUGUGAAGAAUCUGGACGACUCCAUUGAUGACGACAAACUGAGGAAAGAGUUCUCUCCCUAUGGAGUAAUUACCAGUGC,0.845

# For quick reference, copied from above (study 4):
Strand,log2 enrichment
CACAGACAACACGCACCCACACAGACACAGAGGGAAGGGGUUGGGAUGGGGACAGGGUGCACAGCAGGGCGGGGUACGACCCCAGCCCCU,1.34
CCUGUGCUACACAUCGUAUGUACCGAAUCGGGGUUUUUUGGGGUUUUUUGGGGUUUUUUGGAAAGUAUUAUGUUACGCCGUUCGGAUCUG,1.32
AGUCCUGUGCUACACAUCGUAUGUACCGAAUCGGGGUUUGGGGAAAAAGGGGAGGGGAAAGUAUUAUGUUACGCCGUUCGGAUCUGCACU,-0.0837
CCUCAAGUCCUGUGCUACACAUCGUAUGUACCGAAUCGGUGGGGUGGGUGGGGAAAGUAUUAUGUUACGCCGUUCGGAUCUGCACUUCCA,0.248
AGUCCUGUGCUACACAUCGUAUGUACCGAAUCGGGGUUUGGGGUUUGGGGUUUGGGGAAAGUAUUAUGUUACGCCGUUCGGAUCUGCACU,-0.55
